Results collected from several papers.
Protocols differ between the studies behind these lines. “And” joins repeats or separate records; there may be more than shown. Numbers after ± are the reported error.
PTGS2: Prostaglandin G/H synthase 2 (PTGS2, Homo sapiens, UniProt P35354)
USP5: Ubiquitin carboxyl-terminal hydrolase 5 (USP5, Homo sapiens, UniProt P45974)
Protein-S-isoprenylcysteine O-methyltransferase: Protein-S-isoprenylcysteine O-methyltransferase (Homo sapiens, UniProt O60725)
NEK8: Serine/threonine-protein kinase Nek8 (NEK8, Homo sapiens, UniProt Q86SG6)
Coelenterazine h 2-monooxygenase: Coelenterazine h 2-monooxygenase (Renilla reniformis, UniProt P27652)

| Structure (SMILES) | tested on | assay | test system | conditions | quantity | value |
| --- | --- | --- | --- | --- | --- | --- |
| COc1cccc(-c2cc(F)c(NC(=O)Nc3sc(C)nc3C(=O)O)c(F)c2)c1 | DHODH (Homo sapiens, UniProt Q02127) | enzyme activity, DCIP colorimetric | – | 0.50 µM | inhibition | 80.7% and 80.8% and 82.8% |
| C[Si](C)(C)C[C@H](CN)CC(=O)O | alpha2 adrenergic receptor, rat | binding, radioligand binding | – | 250 µM, with: [3H]rauwolscine | inhibition | -5% |
| CO[C@@H]1OC[C@@H](O)[C@H](O)[C@H]1O | PTGS2 | enzyme activity, inhibitor | – | 15.63 µg/mL | inhibition | 81.4% |
| O=C(O)C(=CC(=O)c1ccccc1)Nc1ccccc1 | USP5 | enzyme activity, inhibitor | – | 17 µM | inhibition | 18% |
| O=C(Oc1cccc(CSc2ncccn2)c1)c1ccc([N+](=O)[O-])cc1 | Apelin receptor (APLNR, Homo sapiens, UniProt P35414) | β-arrestin recruitment, antagonist, PRESTO-Tango | – | concentration not given | inhibition | 59.1 ± 5.3% |
| C=CC(=O)N1Cc2nc(-c3cc(-c4cc(Cl)cnc4Cl)c(F)cc3F)n(-c3ccncn3)c2C1 | PRKACG (Homo sapiens, UniProt P22612) | cell-free assay | – | 1 µM | inhibition | -6.8% |
| CC(C)Cc1ccc(-c2nn(-c3ccc(S(C)(=O)=O)cc3)cc2C=NN=c2[nH]c(-c3ccc(Br)cc3)cs2)cc1 | PTGS2 | enzyme activity | – | 100 µM | inhibition | 93.4% |
| CN(C)C/C=C/C(=O)Nc1ccc2nc(NCCCCCN(C)C)nc(NCCCCCCN(C)C)c2c1 | DNA (cytosine-5)-methyltransferase 3A, with DNMT3L (DNMT3A, Homo sapiens, UniProt Q9Y6K1) | enzyme activity | – | 10 µM | inhibition | -69% |
| CC(=O)Nc1ccc2nc(C)sc2c1 | USP5 | enzyme activity, inhibitor | – | 17 µM | inhibition | 52% |
| F[C@@H]1[C@H](c2ccc(-c3cnc(N4CCOCC4)nc3)cc2)[C@H](F)[C@H](F)C[C@@H]1F | – | hepatocyte stability | cryopreserved mouse hepatocytes | 1 µM | hepatic clearance | 33 mL/min/kg |
| CCCC[C@H](NC(=O)CCCCCCCNC(=O)CN1CCN(CC(=O)O)CCN(CC(=O)O)CC1)C(=O)N[C@H]1CC(=O)NCCCC[C@@H](C(N)=O)NC(=O)[C@H](Cc2c[nH]c3ccccc23)NC(=O)[C@H](CCCNC(=N)N)NC(=O)[C@@H](Cc2ccccc2)NC(=O)[C@H](Cc2c[nH]cn2)NC1=O [technetium-99m labelled] | – | – | C57 mouse, intestine | intravenous, 0.037 MBq, 4 h | tissue uptake | 29.7 ± 3.43 %ID |
| N#Cc1ccnc(N2C(=O)CC[C@H]2C(=O)N(c2cncc(F)c2)[C@H](C(=O)NC2CC(F)(F)C2)c2ccccc2Cl)c1 | G6PD (Homo sapiens, UniProt P11413) | enzyme activity | – | 100 µM | inhibition | no inhibition |
| NNC(Cc1ccccc1)c1nnnn1Cc1ccccc1 (stereo not shown) | Endothiapepsin (EAPA, Cryphonectria parasitica, UniProt P11838) | enzyme activity, inhibitor | – | 200 µM | inhibition | 39.9% |
| C/C=C/C(=O)Nc1ccc2nc(NCCCCCN(C)C)nc(NCCCCCCN(C)C)c2c1 | SUV39H2 (Homo sapiens, UniProt Q9H5I1) | enzyme activity, inhibitor, radiometric | – | 10 µM | inhibition | -4% |
| CCCCCCCCN(CCC(=O)Nc1ccccc1)C(=O)c1ccc(OC)cc1 | Protein-S-isoprenylcysteine O-methyltransferase | enzyme activity | Sf9 membranes | 50 µM, with: [3H]S-adenosylmethionine, biotin-farnesyl-L-cysteine | inhibition | 52% |
| Cc1ccc(-c2ccc([C@H]3[C@@H](F)[C@@H](F)C[C@@H](F)[C@H]3F)cc2)cn1 | – | liver microsome stability | mouse liver microsomes | 1 µM | hepatic clearance | 70 mL/min/kg |
| CC=C(C)C(=O)OC1CC2C(C=C(C)C3C(OC(C)=O)CC(=O)C13C)OC(=O)C2C (stereo not shown) | PTGS2 | enzyme activity, inhibitor | – | 0.24 µg/mL | inhibition | 0% |
| O=c1c(=NO)c(=O)c2ccccc12 | USP5 | enzyme activity, inhibitor | – | 17 µM | inhibition | 94% |
| CCCCCCCCN(CCC(=O)Nc1ccccc1)C(=O)c1ccncc1 | Protein-S-isoprenylcysteine O-methyltransferase | enzyme activity | Sf9 membranes | 50 µM, with: [3H]S-adenosylmethionine, biotin-farnesyl-L-cysteine | inhibition | 30% |
| CN1CCN(Cc2ccc(-c3ccc(CO[C@H]4CCC[C@@H]4NC(=O)c4cc(-c5cnn(C)c5)cnc4N)cc3)cc2)CC1 | NEK8 | enzyme activity, inhibitor | – | 0.1 µM | inhibition | 4% |

| Structure (SMILES) | tested on | assay | test system | conditions | quantity | value |
| --- | --- | --- | --- | --- | --- | --- |
| CS(=O)(=O)c1ccc(-n2cc(C=NN=c3[nH]c(-c4ccc(Br)cc4)cs3)c(-c3ccc(Br)cc3)n2)cc1 | PTGS2 | enzyme activity | – | 1 µM | inhibition | 50.6% |
| CC(=O)n1cc([C@H]2C=C(C(=O)N3CCN(Cc4ccc5c(c4)OCO5)CC3)O[C@@H](OCc3ccc(CO)cc3)C2)c2ccccc21 | Coelenterazine h 2-monooxygenase | luciferase activity, inhibitor, luminescence counter-screen | – | concentration not given, test 2 | inhibition | 82.3% and 92.7% |
| O=C1c2sc(-c3ccc(N4CCC(F)C4)nc3F)nc2CCN1c1cccnc1 (stereo not shown) | sodium channel site 2 | radioligand binding | – | 1 µM, with: antagonist radioligand | inhibition | 1% |
| COCC(=O)N1CCc2cc(-c3csc(NC(=O)c4cc(OC)cc(OC)c4)n3)ccc21 | CYSLTR1 (Homo sapiens, UniProt Q9Y271) | ligand displacement, radioligand | – | 10 µM | inhibition | -6% |
| NS(=O)(=O)c1ccc(CCNCc2ccc(-c3ccc(Br)cc3)o2)cc1 | DRD3 (Homo sapiens, UniProt P35462) | enzyme activity, inhibitor | – | 10 µM | inhibition | 42.8% |
| N#C[C@@H]1CC(F)(F)CN1C(=O)CNC(=O)c1ccnc2c(NC(=O)CCOCCOCCOCCOCCOCCOCCNC(=O)[C@H](CCCCNC(=O)CN3CCN(CC(=O)[O-])CCN(CC(=O)[O-])CCN(CC(=O)[O-])CC3)NC(=O)CCCc3ccc(I)cc3)cccc12.[177Lu+3] | U-87 MG tumour model | – | host not given, pancreas | 1 h, tumour-bearing | tracer uptake | 4.59 %ID/g |
| Cl.Oc1ccc(Nc2nc(NCC3CCCO3)c3ccccc3n2)cc1 (stereo not shown) | Coelenterazine h 2-monooxygenase | luciferase activity, inhibitor, luminescence counter-screen | – | concentration not given, test 3 new dilution | inhibition | 106% and 97.3% |
| C/C=C(/C)C(=O)O[C@@H]1C=C(C)CC[C@]2(O)[C@@H](C(C)C)CC(=O)[C@]12C | PTGS2 | enzyme activity, inhibitor | – | 31.25 µg/mL | inhibition | 0% |
| O=C(NN=C1c2ccccc2-c2nc3nonc3nc21)c1ccccc1O | USP5 | enzyme activity, inhibitor | – | 17 µM | inhibition | 59% |
| CC(=O)C12NC(C)(C)CC1(C)C(=O)C1=C2c2c(c3c4n2C(C)(C)CC2=C4C4(CC(C)(C)NC(C)(C4)C2=O)CC3(C)C)C(=O)C(C)(C)N1 (single isomer, unassigned; (+)) | KCNQ2 (Homo sapiens, UniProt O43526) | potassium current, whole-cell patch clamp | HEK293T | 40 µM | inhibition | 0 ± 0.01% |
| Cc1ccc2c(c1)sc(-c1ccc(N(C)C)cc1)[n+]2C | Coelenterazine h 2-monooxygenase | luciferase activity, inhibitor, luminescence counter-screen | – | concentration not given, test 1 | inhibition | 91.7% and 73.8% |
| Cc1cc(Cl)n(-c2ccc(F)cc2)n1 | USP5 | enzyme activity, inhibitor | – | 17 µM | inhibition | 28% |
| O=C1c2sc(-c3ccc(N4CCC(CO)CC4)nc3F)nc2CCN1c1cccnc1 | TACR1 (Homo sapiens, UniProt P25103) | ligand displacement, radioligand | – | 1 µM | inhibition | 16% |
| CC(NC1=C(C(=O)/C=C/c2ccccc2)C(=O)CC(C)(C)C1)C(=O)O (stereo not shown) | USP5 | enzyme activity, inhibitor | – | 17 µM | inhibition | 8% |
| CS(=O)(=O)Nc1cccc(-c2csc3cnc(Nc4ccc(N5CCN(CCCCCOc6cccc7c6C(=O)N(C6CCC(=O)NC6=O)C7=O)CC5)cc4)nc23)c1 (stereo not shown) | NEK8 | probe labelling, inhibitor, KiNativ chemoproteomics | MOLT-4 | 1 µM | inhibition | 22.3% |
| Cc1ccc(-c2nn(-c3ccc(S(C)(=O)=O)cc3)cc2C=NN=c2[nH]c(-c3ccc([N+](=O)[O-])cc3)cs2)cc1 | PTGS2 | enzyme activity | – | 0.01 µM | inhibition | 14% |
| O=C(O)CN1C(=O)Cc2ccccc2C1=O | USP5 | enzyme activity, inhibitor | – | 17 µM | inhibition | 25% |
| CS(=O)(=O)c1ccc(-n2cc(C=NN=c3[nH]c(-c4ccc(Br)cc4)cs3)c(-c3ccc([N+](=O)[O-])cc3)n2)cc1 (mixture of isomers) | PTGS2 | enzyme activity | – | 1 µM | inhibition | 28.5% |
| O=C1NC(=O)C(CCCO)C(=O)C1=NNc1c(Cl)cccc1Cl (stereo not shown) | USP5 | enzyme activity, inhibitor | – | 17 µM | inhibition | 28% |
| CCCCCCCCN(CCC(=O)Nc1ccccc1)C(=O)c1ccc(C(F)(F)F)cc1 | Protein-S-isoprenylcysteine O-methyltransferase | enzyme activity | Sf9 membranes | 50 µM, with: [3H]S-adenosylmethionine, biotin-farnesyl-L-cysteine | inhibition | 18% |

A few entries again:
| Structure (SMILES) | tested on | assay | test system | conditions | quantity | value |
| --- | --- | --- | --- | --- | --- | --- |
| CC(=O)Nc1ccc2nc(C)sc2c1 | USP5 | enzyme activity, inhibitor | – | 17 µM | inhibition | 52% |
| O=c1c(=NO)c(=O)c2ccccc12 | USP5 | enzyme activity, inhibitor | – | 17 µM | inhibition | 94% |
| O=C(NN=C1c2ccccc2-c2nc3nonc3nc21)c1ccccc1O | USP5 | enzyme activity, inhibitor | – | 17 µM | inhibition | 59% |
